Results of several laboratories.
Compare with care: the assays were run in different laboratories. ± gives the spread as reported.
Chain of UniProt P08684 (whole entry, looked up): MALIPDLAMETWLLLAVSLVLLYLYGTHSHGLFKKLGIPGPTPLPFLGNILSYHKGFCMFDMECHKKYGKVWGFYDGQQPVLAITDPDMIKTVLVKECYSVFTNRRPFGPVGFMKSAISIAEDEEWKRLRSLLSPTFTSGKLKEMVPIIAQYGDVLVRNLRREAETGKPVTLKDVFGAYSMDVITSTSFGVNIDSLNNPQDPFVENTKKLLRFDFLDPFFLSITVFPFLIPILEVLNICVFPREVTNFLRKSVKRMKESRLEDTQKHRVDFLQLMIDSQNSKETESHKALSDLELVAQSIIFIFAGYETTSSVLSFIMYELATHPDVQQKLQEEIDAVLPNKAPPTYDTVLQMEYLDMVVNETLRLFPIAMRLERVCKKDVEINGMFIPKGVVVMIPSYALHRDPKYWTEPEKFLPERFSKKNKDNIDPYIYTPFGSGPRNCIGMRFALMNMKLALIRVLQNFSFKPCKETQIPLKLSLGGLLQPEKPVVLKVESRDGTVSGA
Chain of UniProt Q12809 (whole entry, looked up): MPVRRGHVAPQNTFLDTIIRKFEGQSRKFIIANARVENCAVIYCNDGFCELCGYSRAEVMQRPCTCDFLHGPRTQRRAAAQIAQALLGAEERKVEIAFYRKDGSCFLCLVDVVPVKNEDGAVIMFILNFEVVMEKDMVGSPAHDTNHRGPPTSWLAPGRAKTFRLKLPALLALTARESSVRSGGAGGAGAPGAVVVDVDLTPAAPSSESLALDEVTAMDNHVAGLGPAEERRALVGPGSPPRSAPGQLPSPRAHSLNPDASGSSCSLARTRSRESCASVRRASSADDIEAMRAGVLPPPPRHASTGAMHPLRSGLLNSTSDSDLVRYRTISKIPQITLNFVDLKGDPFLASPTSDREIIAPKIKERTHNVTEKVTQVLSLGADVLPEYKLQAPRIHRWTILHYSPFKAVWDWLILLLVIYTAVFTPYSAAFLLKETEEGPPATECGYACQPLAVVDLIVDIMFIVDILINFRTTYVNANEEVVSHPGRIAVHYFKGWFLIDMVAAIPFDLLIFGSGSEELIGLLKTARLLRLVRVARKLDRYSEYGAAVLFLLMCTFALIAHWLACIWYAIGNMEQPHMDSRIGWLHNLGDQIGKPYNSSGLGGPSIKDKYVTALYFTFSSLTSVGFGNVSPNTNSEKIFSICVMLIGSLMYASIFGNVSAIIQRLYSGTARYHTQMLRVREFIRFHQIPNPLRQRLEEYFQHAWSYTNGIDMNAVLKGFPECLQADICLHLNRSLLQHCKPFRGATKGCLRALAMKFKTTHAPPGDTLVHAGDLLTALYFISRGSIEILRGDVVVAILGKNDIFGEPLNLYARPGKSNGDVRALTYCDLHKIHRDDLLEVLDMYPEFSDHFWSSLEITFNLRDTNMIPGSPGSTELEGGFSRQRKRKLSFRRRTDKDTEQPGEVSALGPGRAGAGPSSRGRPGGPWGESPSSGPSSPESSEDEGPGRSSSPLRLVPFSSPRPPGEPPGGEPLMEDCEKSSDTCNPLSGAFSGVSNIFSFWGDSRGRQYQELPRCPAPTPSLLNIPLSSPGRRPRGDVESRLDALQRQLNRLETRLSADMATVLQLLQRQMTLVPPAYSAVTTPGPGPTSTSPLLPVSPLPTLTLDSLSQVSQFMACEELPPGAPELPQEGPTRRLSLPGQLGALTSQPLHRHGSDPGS
Chain of UniProt O75795 (whole entry, looked up): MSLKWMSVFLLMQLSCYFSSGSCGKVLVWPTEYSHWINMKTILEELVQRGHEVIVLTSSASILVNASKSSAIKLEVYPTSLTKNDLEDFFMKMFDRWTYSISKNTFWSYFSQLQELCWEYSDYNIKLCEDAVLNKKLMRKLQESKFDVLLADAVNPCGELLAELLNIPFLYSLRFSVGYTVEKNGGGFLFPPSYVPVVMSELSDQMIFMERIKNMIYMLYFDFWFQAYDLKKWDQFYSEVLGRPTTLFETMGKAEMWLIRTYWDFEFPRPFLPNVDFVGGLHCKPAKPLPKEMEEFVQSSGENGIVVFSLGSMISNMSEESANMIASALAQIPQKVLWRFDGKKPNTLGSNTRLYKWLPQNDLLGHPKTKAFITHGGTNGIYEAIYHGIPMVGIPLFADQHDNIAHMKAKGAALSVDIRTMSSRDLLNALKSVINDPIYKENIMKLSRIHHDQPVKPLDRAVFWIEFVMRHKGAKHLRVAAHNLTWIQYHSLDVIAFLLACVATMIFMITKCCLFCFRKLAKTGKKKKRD
Chain of UniProt Q96JM7 (whole entry, looked up): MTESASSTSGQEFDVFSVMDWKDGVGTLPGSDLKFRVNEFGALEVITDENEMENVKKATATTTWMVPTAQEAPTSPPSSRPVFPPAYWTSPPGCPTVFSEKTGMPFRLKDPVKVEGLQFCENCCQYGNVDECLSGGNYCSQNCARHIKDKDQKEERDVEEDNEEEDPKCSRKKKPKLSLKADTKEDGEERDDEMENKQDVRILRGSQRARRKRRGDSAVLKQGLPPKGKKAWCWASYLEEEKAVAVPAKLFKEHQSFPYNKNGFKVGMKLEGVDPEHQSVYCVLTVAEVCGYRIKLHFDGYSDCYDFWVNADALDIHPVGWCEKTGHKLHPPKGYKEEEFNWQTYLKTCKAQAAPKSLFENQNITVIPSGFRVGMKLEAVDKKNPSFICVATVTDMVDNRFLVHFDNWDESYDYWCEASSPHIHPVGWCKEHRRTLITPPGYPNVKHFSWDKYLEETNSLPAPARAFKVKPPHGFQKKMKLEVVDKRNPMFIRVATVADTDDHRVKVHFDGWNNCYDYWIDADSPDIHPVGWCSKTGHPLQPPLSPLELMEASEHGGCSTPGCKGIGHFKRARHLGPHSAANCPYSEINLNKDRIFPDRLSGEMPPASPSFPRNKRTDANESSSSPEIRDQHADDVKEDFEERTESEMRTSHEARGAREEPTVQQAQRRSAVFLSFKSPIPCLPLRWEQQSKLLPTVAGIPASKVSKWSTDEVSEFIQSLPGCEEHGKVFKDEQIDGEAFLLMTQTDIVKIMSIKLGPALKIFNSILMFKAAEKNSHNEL
Chain of UniProt O43704 (whole entry, looked up): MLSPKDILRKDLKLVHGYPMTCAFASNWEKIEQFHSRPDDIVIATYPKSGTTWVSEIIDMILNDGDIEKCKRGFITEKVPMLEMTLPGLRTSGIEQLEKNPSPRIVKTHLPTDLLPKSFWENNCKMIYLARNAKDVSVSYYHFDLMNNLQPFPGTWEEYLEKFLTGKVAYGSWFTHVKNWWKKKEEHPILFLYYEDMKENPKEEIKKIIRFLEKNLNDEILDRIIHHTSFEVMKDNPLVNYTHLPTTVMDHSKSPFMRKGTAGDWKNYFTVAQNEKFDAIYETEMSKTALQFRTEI
Chain of UniProt P08183 (whole entry, looked up): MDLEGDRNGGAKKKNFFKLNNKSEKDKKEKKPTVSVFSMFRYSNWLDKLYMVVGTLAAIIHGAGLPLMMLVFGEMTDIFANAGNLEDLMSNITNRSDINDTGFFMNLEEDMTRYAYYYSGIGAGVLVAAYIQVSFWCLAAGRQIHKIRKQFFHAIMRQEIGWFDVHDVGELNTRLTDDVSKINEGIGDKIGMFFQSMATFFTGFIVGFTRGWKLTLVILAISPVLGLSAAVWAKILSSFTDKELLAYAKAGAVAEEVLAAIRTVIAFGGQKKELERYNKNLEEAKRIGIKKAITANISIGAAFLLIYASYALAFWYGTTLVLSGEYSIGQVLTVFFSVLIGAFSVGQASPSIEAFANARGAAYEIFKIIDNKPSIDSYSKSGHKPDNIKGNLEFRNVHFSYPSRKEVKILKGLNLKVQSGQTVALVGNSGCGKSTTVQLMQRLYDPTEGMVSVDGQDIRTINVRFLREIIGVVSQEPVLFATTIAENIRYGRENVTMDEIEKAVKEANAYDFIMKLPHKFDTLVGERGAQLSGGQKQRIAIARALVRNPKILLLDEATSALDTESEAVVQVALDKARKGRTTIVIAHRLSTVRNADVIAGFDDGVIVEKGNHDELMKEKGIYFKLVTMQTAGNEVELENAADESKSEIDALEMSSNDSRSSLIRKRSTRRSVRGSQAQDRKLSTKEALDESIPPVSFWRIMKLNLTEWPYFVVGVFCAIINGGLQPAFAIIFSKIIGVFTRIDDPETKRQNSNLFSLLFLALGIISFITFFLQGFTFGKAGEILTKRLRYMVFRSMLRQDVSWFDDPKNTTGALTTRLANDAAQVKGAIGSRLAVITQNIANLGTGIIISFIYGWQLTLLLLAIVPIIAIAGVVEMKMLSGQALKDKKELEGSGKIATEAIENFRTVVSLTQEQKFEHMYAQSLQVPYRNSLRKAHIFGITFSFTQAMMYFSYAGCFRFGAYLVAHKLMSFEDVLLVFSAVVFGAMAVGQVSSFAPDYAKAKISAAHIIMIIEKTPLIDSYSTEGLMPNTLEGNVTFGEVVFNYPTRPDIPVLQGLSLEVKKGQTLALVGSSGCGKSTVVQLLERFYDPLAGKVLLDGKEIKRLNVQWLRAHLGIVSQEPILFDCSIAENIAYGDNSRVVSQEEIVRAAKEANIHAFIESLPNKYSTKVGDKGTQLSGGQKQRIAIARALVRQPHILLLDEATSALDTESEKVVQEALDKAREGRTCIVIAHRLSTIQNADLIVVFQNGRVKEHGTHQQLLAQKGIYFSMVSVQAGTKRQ

COc1cc(O)c(CC=C(C)C)c(O)c1C(=O)/C=C/c1ccc(O)cc1
inhibition (CYP2D6 (human); enzyme activity, inhibitor; human liver microsomes; 10 µM, pH 7.4, together with: dextromethorphan): < 10%

C[C@@H](c1ccc2nccn2c1)n1nnc2ncc(-c3cnn(C)c3)nc21
IC50 (CYP3A4/5 (human); enzyme activity, inhibitor; pooled human liver microsomes; pH 7.4, together with: testosterone substrate): 69 µM

CC1(C)CCC2(CC1)N[C@@H](C(=O)N[C@@H]1CC[C@@H](C(N)=O)OC1)[C@H](c1ccnc(Cl)c1F)[C@]21C(=O)Nc2cc(Cl)ccc21
Papp(B-A) (ABCB1 (Homo sapiens, UniProt P08183); Caco-2; 1 µM, 120 min, together with: elacridar 5 µM): 3.44 ×10⁻⁶ cm/s

Cc1nc(-c2cnc(NC(C)C)n(C)c2=O)ccc1Oc1ccnc(-c2cnn(C)c2)c1
IC50 (CYP3A4/5, human; inhibitor; 30 min, preincubation without NADPH): > 100 µM

Cc1oc2ccccc2c1Cc1cc(I)c(OCC(=O)O)c(I)c1
half-maximal activation voltage (KCNH2 (Homo sapiens, UniProt Q12809); ion current, two-electrode voltage clamp; Xenopus oocytes expressing hERG1; 50 µM, 5 s depolarizations): -42 ± 1.2 mV

O=C(Nc1ccc(C2CCCCC2)cc1)c1cn[nH]c1
hepatic clearance (human liver microsomes; 1 µM, without NADPH): 3.9 mL/min/kg

CC(C)NC(=O)COc1cccc(-c2nc(Nc3ccc4[nH]ncc4c3)c3ccccc3n2)c1
IC50 (UGT2B17 (Homo sapiens, UniProt O75795); enzyme activity, inhibitor; recombinant UGT microsomes; together with: testosterone): > 10 µM

O=C1OC(c2ccccc2)=N/C1=C\c1ccc(O)cc1
inhibition (bovine serum albumin; fructose-induced glycation, inhibitor, measured: fluorescent AGEs; 1600 ppm, 21 days, pH 7.4): 38%

Cc1ccnc([18F])c1-c1cccc(N2C[C@H](N3CCN(C(=O)c4nccs4)CC3)CC2=O)c1
VT (monoacylglycerol lipase; PET, arterial input; rhesus monkey, brain cerebellum; intravenous, baseline): 6.85 mL/cm3

CN(CCC#N)C(=O)c1ccc(C2CCCCC2)cc1
hepatic clearance (hepatocyte stability; cryopreserved human hepatocytes; 1 µM): 17 mL/min/kg

COc1cc(O)c(CC=C(C)C)c2c1C(=O)CC(c1ccc(O)cc1)O2 (stereo not drawn)
inhibition (CYP2D6 (human); enzyme activity, inhibitor; human liver microsomes; 1 µM, pH 7.4, together with: dextromethorphan): < 10%

O=C(c1ccc(C(=O)N2CCC(N3CCCC3)CC2)c(Nc2ccccc2)c1)N1CCC(N2CCCC2)CC1
FRAP recovery half-time (Lethal(3)malignant brain tumor-like protein 3 (Homo sapiens, UniProt Q96JM7); FRAP; human cells; 0.01 µM): 23.8 s

C=CC(=O)N1C[C@H](Nc2ncnc3[nH]ccc23)CC[C@@H]1C
Tmax (CYP3A; substrate; human, plasma; oral, 30 mg single dose, cpd alone): 30 min

CC(=O)NCCc1c[nH]c2ccc(O)cc12
specific activity (SULT1B1 (Homo sapiens, UniProt O43704); substrate, sulfation, purified enzyme; 10 µM, 10 min, pH 7.0, 37 °C): 0.59 ± 0.05 nmol/min/mg

CC[C@H]1[C@@H](O)[C@@H]2[C@H](CC[C@]3(C)[C@@H]([C@H](C)CCNC(=O)NS(=O)(=O)c4ccc(C(C)(C)C)cc4)CC[C@@H]23)[C@@]2(C)CC[C@@H](O)C[C@@H]12
Tmax median (Cytochrome P450 3A4 (CYP3A4, Homo sapiens, UniProt P08684); human, plasma; 10 mg, day 1, compound alone): 4 h

For quick reference, copied from above:
O=C1OC(c2ccccc2)=N/C1=C\c1ccc(O)cc1
inhibition (bovine serum albumin; fructose-induced glycation, inhibitor, measured: fluorescent AGEs; 1600 ppm, 21 days, pH 7.4): 38%
